Measured values collected from several papers.
Every numbered part comes from another study and shows a few of its results, in no order. Positions count from the first letter of the parent shown.

Study 1 — target: CREBL2, bZIP domain (human); technique: DHFR protein complementation; matrix: yeast; baseline: wild-type JUN-FOS pair; direction: higher = stronger binding; measurement: binding fitness
Notes: single substitutions, most at no-binding floor
Starting sequence: JUN, bZIP domain (human); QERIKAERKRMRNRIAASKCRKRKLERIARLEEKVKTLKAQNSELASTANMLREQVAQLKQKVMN; partner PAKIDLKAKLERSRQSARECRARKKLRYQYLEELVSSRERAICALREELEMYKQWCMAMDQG
E54K: -1.57 natural log
V35D: -1.59 natural log
M51T: -1.5 natural log
R53S: -1.5 natural log
E33S: -1.53 natural log
E54Q: -1.47 natural log
K39D: -1.42 natural log
K39W: -1.52 natural log
Q41K: -1.2 natural log
E44H: -1.46 natural log
A29R: -1.41 natural log
E33A: -1.41 natural log

Study 2 — target: CCNB2, cyclin fold, Cln2 fusion (human); technique: yeast growth competition, sequencing; matrix: yeast; notes: weak parent motif; baseline: not given; direction: higher = stronger binding; measurement: normalised enrichment score
Starting sequence: CDC6 docking peptide (human); TLKGRRLVFDNQL
R5A: 0.12
T1S: 0.364
L7N: 0.364
D10H: 0.0587
R6S: -0.488
G4L: 0.243
G4V: 0.00343
T1Y: 0.21
L2M: 0.141
G4S: -0.258
L2Y: 0.22
L7V: 0.232
L13E: 0.0778
N11A: 0.185
R5K: -0.0304

Study 3 — technique: RNA Bind-n-Seq; form: RNA; matrix: in vitro; tested at: 200 nM; notes: whole 134-nt RNA, ends assumed; together with: 150 mM KCl; baseline: input library; direction: higher = stronger binding; measurement: log2 enrichment
Target: Fragile X messenger ribonucleoprotein 1, C-terminal low-complexity region (Fmr1, Mus musculus, UniProt P35922)
Shared flanks, not repeated: GGGAGUUCUACAGUCCGACGAUC … UGGAAUUCUCGGGUGUCAAGG
GUCCUGUGCUACACAUCGUAUGUACCGAAUCGGGAAAAAGGAAAAAGGGGAAAAAGGGAAAGUAUUAUGUUACGCCGUUCGGAUCUGCAC: -0.398
GGAUCAAAGCAAGUUGGAGAAACAUCAGCACCUGGAGACACCUUAGAUGGCACACCUCGUACUCUCAAUACUGUCUUUGAUUUCCCACCA: 0.429
CUGUGCUACACAUCGUAUGUACCGAAUCGGCCCCCCCGGGCCCCCCCGGGGCCCCCCCGGGGAAAGUAUUAUGUUACGCCGUUCGGAUCU: -1.16
UCAAGUCCUGUGCUACACAUCGUAUGUACCGAAUCGGGGCCGGGCCGGGGCCGGGAAAGUAUUAUGUUACGCCGUUCGGAUCUGCACUUC: 0.074
GUCCUGUGCUACACAUCGUAUGUACCGAAUCGGAAAAAAAGGUUUUUUUGGAAAAAGGAAAGUAUUAUGUUACGCCGUUCGGAUCUGCAC: -1.27
GUCCUGUGCUACACAUCGUAUGUACCGAAUCGGAAAAAAGGAAAAAAGGGAAAAAAGGAAAGUAUUAUGUUACGCCGUUCGGAUCUGCAC: -0.694
GUGCUACACAUCGUAUGUACCGAAUCGGGGUUUUUUUGGGGUUUUUUUGGGGAAAAAAAGGGGAAAGUAUUAUGUUACGCCGUUCGGAUC: 0.422
UAACUUUAGAGGAGGAUCUGAUGGAUAUGGCAGUGGACGUGGAUUUGGGGAUGGCUAUAAUGGGUAUGGAGGAGGACGUGGAGGUGGCAA: 0.596
CAAGUCCUGUGCUACACAUCGUAUGUACCGAAUCGGGAAAGGGUUUGGGAAAGGGAAAGUAUUAUGUUACGCCGUUCGGAUCUGCACUUC: 0.704
CCUGUGCUACACAUCGUAUGUACCGAAUCGGGGUUUUUGGGGAAAAAGGGGUUUUUGGGGAAAGUAUUAUGUUACGCCGUUCGGAUCUGC: 0.435
GUCCUGUGCUACACAUCGUAUGUACCGAAUCGGGUUUUUUUGGGAAAAAGGGUUUGGGAAAGUAUUAUGUUACGCCGUUCGGAUCUGCAC: -0.517

Single results of other studies
PhoQ, residues 284 288 289 292 302 303 TVTVVA
fold induction (PhoP, residues 12 14 15 18 19 GQAIL (Escherichia coli, UniProt P23836); Sort-seq, measured: YFP reporter; E. coli; PhoQ-PhoP variant library, together with: 10 µM Mg2+; baseline: high Mg2+ state, higher = stronger signaling): 9.99

Repeated from above (study 2):
R6S: -0.488
G4L: 0.243
G4V: 0.00343
